# Measurements of several laboratories.
# A part holds a random share of what one study measured.

# Set 1
# Target: Histone acetyltransferase KAT6A, winged helix 1, GST fusion (KAT6A, Homo sapiens, UniProt Q92794, residues 1-85)
# Method: protein binding microarray
# Molecule type: double-stranded DNA, one strand shown
# Medium: in vitro
# Tested at: not given
# Notes: 8-mer, flanks averaged, mean of 2 arrays, mostly near background
# Relative to: not given
# Direction: higher = stronger binding
# Residues (chain): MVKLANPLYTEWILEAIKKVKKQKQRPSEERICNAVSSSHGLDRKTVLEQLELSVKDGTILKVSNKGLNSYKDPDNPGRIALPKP
Oligonucleotide,E-score
CCTCAACG,-0.195
ACCGGGTC,0.256
CCGTTTGC,0.235
ATTTGCAG,-0.276
AAGAACCA,-0.0853
ACGGGGAC,0.25
AGGCTTGG,-0.111
AGTTCCTA,-0.125
AACTACGA,-0.0646
GATGCAGA,-0.236
CGCTGGAG,0.11
GCAGTCGC,0.226
CCATGGGG,-0.101
GCACGCAC,0.194
TAGAAGAA,-0.191
CCTGGATA,0.00285
ACCAGGAC,-0.0452
AGCGGCCC,0.324
ATTTACTC,0.0104
ATGCCTCA,0.0423
CTACAAGA,-0.183
GCAGTGTA,-0.0804
CCTACGCC,0.133
CCGCCACC,0.243

# Set 2
# Target: RING finger protein unkempt homolog, zinc fingers 1-6, GST-SBP tag (UNK, Homo sapiens, UniProt Q9C0B0, residues 30-357)
# Chain of UniProt Q9C0B0 (30-357, looked up): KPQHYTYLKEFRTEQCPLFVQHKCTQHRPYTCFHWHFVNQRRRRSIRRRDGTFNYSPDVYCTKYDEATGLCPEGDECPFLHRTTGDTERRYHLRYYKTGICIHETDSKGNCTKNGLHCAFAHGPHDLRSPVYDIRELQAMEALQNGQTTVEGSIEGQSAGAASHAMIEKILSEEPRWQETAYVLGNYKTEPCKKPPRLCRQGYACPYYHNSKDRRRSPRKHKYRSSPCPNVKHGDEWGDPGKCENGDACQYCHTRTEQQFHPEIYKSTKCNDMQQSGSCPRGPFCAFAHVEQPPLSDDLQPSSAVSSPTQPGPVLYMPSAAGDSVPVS
# Method: RNA Bind-n-Seq
# Molecule type: RNA
# Medium: in vitro
# Tested at: not given
# Notes: RNA with constant flanks, human and mouse sites, ends assumed
# Relative to: input RNA pool
# Direction: higher = stronger binding
# Shared flanks, not repeated: GGGAGUUCUACAGUCCGACGAUC … CAACAGAGGAUUGAGCAUCA
Oligonucleotide,bound/input enrichment [ratio]
AGUAUUAAGUCACAUCAUACUUUAAUUUAGUGAAUAUGCUUUGCUGUUUAUUACUAAAACUGACUCAUUGUUCUUUGAUUAUGCUCAUUAUUCUAGAAACCAAUAACUUAAGAUUACUUU,2.36
UUGAUUUUUAUUUCUGUGGGGAACUUUAUUUUUCUUGGCAAAUAACUAAAGUUCUUGUCCAUGUAAUUUCUGUGGUCUCUAUUCAGCUUGGGUUUCAUGUUUUAAAAUAAACAAUUUUAA,0.293
CCGCGGCUUGCCGGAAGUGGGCAGGGCGGCAGCGGCUGCUCUUGGCGGCCCCGAGGUGACUAUAGCCUUCUUUUGUGUCUUGAUAGUUCGCCAUGGAUGACGAUAUCGCUGCGCUGGUCG,0.174
GAGAUGUUAGAAGAUGGCUCUGAGAGAUUCCUCUGCGAAUCUGUUUUUAGCUAUCAAGUGGCAUCCACGCUUAAACAGGUGAAACAUGAUCAGCAAGUUGCUCGGAUGGAAAAACUAGCU,0.162
UUUAUAUUUAACUAAAUGUAAGGUACGAACUAUGACAUAUUAAACUUUUCUUGCCCUUCCUAGUUCUGAGGUAGAUGUGCACAUAUCUGCCACCACAUUCCAUAUGUGUUGAGUAGUUAA,0.936
CUCUAGAUUCUGUAUCUAGAUCACCAUGGCGACUGGACAGAAGUUGAUGAGAGCUGUUAGAGUUUUUGAAUUUGGUGGGCCAGAAGUCCUGAAAUUGCGAUCAGAUAUUGCAGUACCGAU,1.57
AGUUGGCGCUUCAGCAGCUGAAUGCCGUUGCCUCACAUGGUUCAACACCACCUUAUACUUUAUUAAAUCAGGCUUUCUUGAAAAUAGCCAUGUCGAGACCCAGGUUUAAUCCUCGAGGAG,0.347
GGCGUCCUUUAUCAUAUUUCAAAUCCUAAUGGAGACAAAACAAAAGUGAUGGUCAGUAUUUCUUUGAAAUUCUACAAGGAACUUCAGGCACAUGGAGCUGAUGAGUUGUUAAAGAGAGUG,0.595

# Set 3
# Target: Sal-like protein 4, full length isoform B (SALL4, Homo sapiens, UniProt Q9UJQ4-2, residues 1-616)
# Method: universal PBM
# Molecule type: double-stranded DNA, one strand shown
# Medium: in vitro
# Tested at: not given
# Notes: 8-mer, flanks averaged, mean of replicates
# Direction: higher = stronger binding
# Target sequence (chain): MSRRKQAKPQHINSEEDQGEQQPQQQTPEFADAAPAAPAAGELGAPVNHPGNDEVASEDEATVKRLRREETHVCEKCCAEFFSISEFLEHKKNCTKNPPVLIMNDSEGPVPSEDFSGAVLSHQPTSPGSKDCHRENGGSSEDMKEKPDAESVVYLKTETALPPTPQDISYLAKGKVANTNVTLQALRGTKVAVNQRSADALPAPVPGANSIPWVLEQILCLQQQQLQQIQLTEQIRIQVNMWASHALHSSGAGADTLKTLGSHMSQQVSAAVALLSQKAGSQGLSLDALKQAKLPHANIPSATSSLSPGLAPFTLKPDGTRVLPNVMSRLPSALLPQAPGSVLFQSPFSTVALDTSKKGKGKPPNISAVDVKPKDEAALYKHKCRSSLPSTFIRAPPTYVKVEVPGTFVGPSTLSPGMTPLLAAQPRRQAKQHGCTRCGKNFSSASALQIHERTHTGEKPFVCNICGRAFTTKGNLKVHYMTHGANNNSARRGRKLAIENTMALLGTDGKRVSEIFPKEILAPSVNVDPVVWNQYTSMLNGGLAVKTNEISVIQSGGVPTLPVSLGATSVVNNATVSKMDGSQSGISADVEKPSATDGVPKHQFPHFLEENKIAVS
Oligonucleotide,E-score
ACCCGACG,-0.325
ACGAAGCC,-0.184
CTGCAGTC,-0.306
AGACGTCA,0.00515
ACACTTCA,0.198
CAGGTTCC,-0.31
AGCCAAAC,-0.0566
ACAACCCC,-0.0903
CGTACAGA,0.122
AATTTAAA,0.319
ACTAGACA,0.181
AGCTCAGG,-0.228
CCTCCGGC,-0.379
ATACGAAC,0.156
CCTAGACC,-0.071
GATGGGGA,-0.202
CAGACCAG,-0.182
CAATGCAG,-0.0859

# Set 4
# Target: Phosphate system positive regulatory protein PHO4, full length, GST-tagged (PHO4, Saccharomyces cerevisiae, UniProt P07270, residues 1-312)
# Method: competition protein-binding microarray
# Molecule type: double-stranded DNA, one strand shown
# Medium: in vitro
# Tested at: 2 µM
# Notes: whole 60-bp probe, lowest competitor level
# Added: Cbf1 competitor, 0.05 µM
# Direction: higher = stronger binding
# Shared flanks, not repeated: … GTCTTGATTCGCTTGACGCTGCTG
# Target sequence (chain): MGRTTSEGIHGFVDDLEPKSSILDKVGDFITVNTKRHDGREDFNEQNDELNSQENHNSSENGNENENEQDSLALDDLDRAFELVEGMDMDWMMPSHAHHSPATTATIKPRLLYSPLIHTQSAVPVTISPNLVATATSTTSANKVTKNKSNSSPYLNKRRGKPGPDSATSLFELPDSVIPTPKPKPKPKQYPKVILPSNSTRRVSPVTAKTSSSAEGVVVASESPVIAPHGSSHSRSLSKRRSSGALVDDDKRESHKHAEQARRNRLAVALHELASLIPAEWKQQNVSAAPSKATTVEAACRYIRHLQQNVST
Oligonucleotide,fluorescence intensity [a.u.]
CGTCCTAGTGATTGTTAGGTGGGTGCCATGAGGAAG,7470
AAATTACTAAGTTGGCGTGTGGGTGACGCCGTATGA,5970
GCCAGCCACATTCACCACGGGTGCCGGTACTTCCAA,6690
CATTCGAGTCTATTGTGCGTGTTGGCTTAGATTCTT,8080
GCGACATCAACGAGTCACGTGACGGGCACTGCGTCG,11400
AGTTTCTTGAAGATCTGCATGACAAATAATGTTTGC,4770
CGTCCTAGTGATTTTCACGTGATCTCCATGAGGAAG,12700
TTTTAAGCCGCAATACGCGTGCGGACTTTTCACTGG,9350
AAATTACTAAGTTGTGGGGTGGGTGACGCCGTATGA,6050
CGGGGTTAAGTTTGTAACGTGGGTGGCTTGCAGCAG,9990
AAATTACTAAGTTGTCACACAACTTACCCCGTATGA,4420
CAGGGGGACTCATCTCTCGTGAAGATCCAGGCTATG,3540
GCCGGATCCCGGAATAGCGTGATGGTCTACTCCTGT,4610
CGGGGTTAAGTTTGGAGGGTGGGTGGCTTGCAGCAG,5240
AGTGCTCATACGCATCATATGACATGGATGATACGG,5870
CTTCTGTAAATTTTTCACGTGAAATGACGCGCCCCG,8030
CTTCTGTAAATTTGTCGGGTGGGTGGACGCGCCCCG,4280
CTTTCCCGATCTTGACCCGTGGGTGTAGCACATTTG,11300
TGTTGAGTTACACCCCGCGTGCTAAAAAAGGGGTGA,11200

# For quick reference, copied from above (set 4):
Oligonucleotide,fluorescence intensity [a.u.]
AAATTACTAAGTTGTCACACAACTTACCCCGTATGA,4420
CGTCCTAGTGATTGTTAGGTGGGTGCCATGAGGAAG,7470
CTTCTGTAAATTTTTCACGTGAAATGACGCGCCCCG,8030
GCCGGATCCCGGAATAGCGTGATGGTCTACTCCTGT,4610
GCCAGCCACATTCACCACGGGTGCCGGTACTTCCAA,6690
